Published values collected from several papers.
Protocols differ between the studies behind these lines. Values joined by “and” are separate records of one study, mostly repeats; a detail may differ. ± gives the spread as reported.

C=CC(=O)N1CCC([C@@H]2CCNc3c(C(N)=O)c(-c4ccc(Oc5ccccc5)cc4)nn32)CC1  stability (rat plasma; autosampler, freeze-thaw, short- and long-term storage): stable
Cn1cc(-c2cn3nccc3c(-c3cnn([C@]4(CC#N)C[C@@H](C#N)C4)c3)n2)cn1  dose-normalised AUC(0-t) (healthy humans fasted, plasma; oral, 3 mg single dose, geometric mean): 13.4 ng·h/mL/mg
Cc1cc(-c2nccc3c2ccn3CC(=O)Nc2ccc(-c3cnccn3)cn2)ccn1  post-procedural erythema (human; 20 mg once daily, multiple ascending dose): 0%
CO[C@H]1C[C@@H]2CC[C@@H](C)[C@@](O)(O2)C(=O)C(=O)N2CCCC[C@H]2C(=O)O[C@H]([C@H](C)C[C@@H]2CC[C@@H](O)[C@H](OC)C2)CC(=O)[C@H](C)/C=C(\C)[C@@H](O)[C@@H](OC)C(=O)[C@H](C)C[C@H](C)/C=C/C=C/C=C/1C  rectal temperature (healthy adult horses; oral, 0.06 mg/kg, 48 h): 36.8 ± 0.3 °C
CC(C)n1ncc2c(C(=O)NCC3(C)CNC3)cc(C3CC3)nc21  drug concentration (LC-MS/MS; Swiss Webster mouse pups, spinal cord; ip, 50 mg/kg daily, 7 days, 1 h after last dose): 595 ng/g and 635 ng/g and 830 ng/g and 540 ng/g and 273 ng/g
CC(C)c1nc(CN(C)C(=O)N[C@@H](CCN2CCOCC2)C(=O)N[C@H](CC[C@H](Cc2ccccc2)NC(=O)OCc2cncs2)Cc2ccccc2)cs1  total AUC (female mouse, plasma; oral, 30 mg/kg): 13.2 µM·h
Cn1c(=O)[nH]c2ncn(C)c2c1=O  CSF concentration (human, cerebrospinal fluid; dose not given, mean): not detected
CCc1cc(C(=O)NC)c2nccc(N3CCc4c(cc(Cn5ccnc5)cc4-c4cn(C)nc4C(F)(F)F)C3=O)c2c1  serum TG level (Sprague Dawley rats; oral, 100 mg/kg once daily, 7 days): 0.8 ± 0.17 mmol/L
COc1ccc([C@@H](O)c2cc(-c3ncnc4cc(N5CCOCC5)ccc34)c(F)cc2Cl)nn1  drug-related lymphopenia incidence (locally advanced rectal cancer patients; 150 mg, added: capecitabine and radiotherapy): 33%
CN[C@@H](C)C(=O)N[C@H]1CN(S(=O)(=O)c2cccc(S(=O)(=O)N3CC[C@H]4CC[C@@H](C(=O)NC(c5ccccc5)c5ccccc5)N4C(=O)[C@@H](NC(=O)[C@H](C)NC)C3)c2)CC[C@H]2CC[C@@H](C(=O)NC(c3ccccc3)c3ccccc3)N2C1=O  AUC(0-t) (LC-MS/MS; human, advanced solid tumours, plasma; intravenous, 45 mg weekly, day 15): 1290 ± 752 ng·h/mL
CC(C)(C(=O)N1CCOc2c(C#N)cncc2C1)C(F)F  subjects with TEAE (measured: general and administration site disorders; human, both sexes; oral, 20 mg twice daily, 14 days, multiple ascending dose): 12.5%
C=CC(=O)N1CCC(Oc2cc3c(Nc4ccc(Cl)c(Cl)c4F)ncnc3cc2OC)CC1  elimination half-life (Sprague-Dawley rat, male, plasma; oral, 2 mg/kg, 1 weeks pretreatment, added: Schisandrin A 20 mg/kg daily pretreatment): 3.35 ± 0.94 h
CNC(=O)c1ccc(-c2cnc3ncc(Cc4ccc5ncccc5c4)n3n2)cc1F  AUC(0-t) (human, moderate NCI classification, plasma; oral, 200 mg, adjusted geometric mean): 7260 ng·h/mL
CCCCC1=NC2(CCCC2)C(=O)N1Cc1ccc(-c2ccccc2S(=O)(=O)Nc2noc(C)c2C)c(COCC)c1  Cmax (healthy adult volunteers, plasma; oral, 50 mg, single dose, fed, crushed tablet): 1350 ng/mL
C=CCNc1nc(C)c(-c2ccnc(Nc3cccc([N+](=O)[O-])c3)n2)s1  logP (octanol/buffer, 40 mM buffer; pH 11): 4.8
CCCCC/C=C\C/C=C\CCCCCCCCC(CCCCCCCC/C=C\C/C=C\CCCCC)OC(=O)CCCN(C)C  zeta potential (pH 5.5, formulated): 2.8 mV
CNC(=O)c1cc(Oc2ccc(NC(=O)Nc3ccc(Cl)c(C(F)(F)F)c3)c(F)c2)ccn1  long-term stability accuracy (mouse plasma; 750 ng/mL, 6 months, -80 °C): 91.8%
CCN1[C@@H](C(=O)NC23CCC(C(=O)O)(CC2)CC3)[C@H](c2cccc(Cl)c2F)[C@]2(C(=O)Nc3cc(Cl)ccc32)C12CCCCC2  Vd/F (human; oral, single dose, mean across doses): 46.8 to 87.2 L
O=C(Cc1ccc(OC(F)(F)F)cc1)Nc1cc(C2CC2)[nH]n1  logP (octanol/buffer; pH 11): 3.77
CCO[C@H]1CCN(Cc2c(OC)cc(C)c3[nH]ccc23)[C@H](c2ccc(C(=O)O)cc2)C1  unbound AUCinf (human moderate hepatic impairment, plasma; oral, 200 mg single dose, median): 5060 ng·h/mL
COc1cccc(-c2n[nH]c(SCc3ccccn3)n2)c1OC  plasma concentration (Sprague-Dawley rats, both sexes; oral dietary, 100 mg/kg/day, day 7, 3 h): 4660 ng/mL
